Experimental data pooled from the literature.
Numbered parts are unrelated; each lists some results of a single study. Positions count from the first letter of the parent shown.

Series 1
Target: Transcription factor Sp1 (SP1, Homo sapiens, UniProt P08047, residues 1-785, full length assumed)
UniProt P08047, sequence (whole entry, looked up): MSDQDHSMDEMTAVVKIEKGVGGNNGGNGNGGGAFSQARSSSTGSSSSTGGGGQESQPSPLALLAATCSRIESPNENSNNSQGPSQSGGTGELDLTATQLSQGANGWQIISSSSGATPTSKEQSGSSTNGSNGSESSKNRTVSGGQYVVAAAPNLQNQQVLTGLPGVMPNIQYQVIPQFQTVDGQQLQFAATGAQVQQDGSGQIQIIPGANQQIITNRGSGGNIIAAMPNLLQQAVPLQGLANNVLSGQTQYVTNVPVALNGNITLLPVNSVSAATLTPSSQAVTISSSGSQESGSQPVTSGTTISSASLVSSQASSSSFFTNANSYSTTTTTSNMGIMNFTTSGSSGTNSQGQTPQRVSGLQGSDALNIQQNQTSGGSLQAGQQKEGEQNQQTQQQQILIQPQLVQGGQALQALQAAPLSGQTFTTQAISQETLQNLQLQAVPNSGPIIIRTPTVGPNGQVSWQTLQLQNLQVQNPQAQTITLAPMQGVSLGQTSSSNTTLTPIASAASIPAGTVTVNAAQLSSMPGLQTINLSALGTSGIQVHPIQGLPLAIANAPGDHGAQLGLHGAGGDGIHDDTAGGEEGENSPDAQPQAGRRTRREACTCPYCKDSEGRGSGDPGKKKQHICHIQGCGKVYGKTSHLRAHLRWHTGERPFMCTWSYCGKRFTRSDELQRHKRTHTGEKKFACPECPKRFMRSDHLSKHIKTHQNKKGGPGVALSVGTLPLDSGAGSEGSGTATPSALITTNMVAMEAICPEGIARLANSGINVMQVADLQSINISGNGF
Method: protein-binding microarray
Molecule type: double-stranded DNA, one strand shown
Medium: in vitro
Tested at: not given
Setting: k-mer, scored over probes, only values ≥0.25
Direction: higher = stronger binding
| Oligonucleotide | E-score |
| --- | --- |
| CCGCCCCC | 0.494 |
| TGATGGAA | 0.259 |
| AGGGGGTG | 0.399 |
| GTGTCATA | 0.316 |
| GACCCACC | 0.323 |
| GGGAATGA | 0.263 |
| ATCGGGGC | 0.252 |
| CCTATGCA | 0.29 |
| CGGGGTAG | 0.311 |
| TCCCCAAA | 0.254 |
| AAAGGGGG | 0.314 |
| GGGGATAA | 0.315 |
| TATTCACA | 0.252 |
| AGATACAC | 0.304 |
| ACCCACCA | 0.285 |
| ATCCCCAC | 0.417 |
| CCTCCCAC | 0.385 |
| ATAATTAT | 0.289 |
| GGGTGGAC | 0.255 |
| CTCCCCTA | 0.331 |
| CTATGCAA | 0.277 |

Series 2
Target: Sal-like protein 4, full length isoform A (SALL4, Homo sapiens, UniProt Q9UJQ4, residues 1-1053)
UniProt Q9UJQ4, sequence (whole entry, looked up): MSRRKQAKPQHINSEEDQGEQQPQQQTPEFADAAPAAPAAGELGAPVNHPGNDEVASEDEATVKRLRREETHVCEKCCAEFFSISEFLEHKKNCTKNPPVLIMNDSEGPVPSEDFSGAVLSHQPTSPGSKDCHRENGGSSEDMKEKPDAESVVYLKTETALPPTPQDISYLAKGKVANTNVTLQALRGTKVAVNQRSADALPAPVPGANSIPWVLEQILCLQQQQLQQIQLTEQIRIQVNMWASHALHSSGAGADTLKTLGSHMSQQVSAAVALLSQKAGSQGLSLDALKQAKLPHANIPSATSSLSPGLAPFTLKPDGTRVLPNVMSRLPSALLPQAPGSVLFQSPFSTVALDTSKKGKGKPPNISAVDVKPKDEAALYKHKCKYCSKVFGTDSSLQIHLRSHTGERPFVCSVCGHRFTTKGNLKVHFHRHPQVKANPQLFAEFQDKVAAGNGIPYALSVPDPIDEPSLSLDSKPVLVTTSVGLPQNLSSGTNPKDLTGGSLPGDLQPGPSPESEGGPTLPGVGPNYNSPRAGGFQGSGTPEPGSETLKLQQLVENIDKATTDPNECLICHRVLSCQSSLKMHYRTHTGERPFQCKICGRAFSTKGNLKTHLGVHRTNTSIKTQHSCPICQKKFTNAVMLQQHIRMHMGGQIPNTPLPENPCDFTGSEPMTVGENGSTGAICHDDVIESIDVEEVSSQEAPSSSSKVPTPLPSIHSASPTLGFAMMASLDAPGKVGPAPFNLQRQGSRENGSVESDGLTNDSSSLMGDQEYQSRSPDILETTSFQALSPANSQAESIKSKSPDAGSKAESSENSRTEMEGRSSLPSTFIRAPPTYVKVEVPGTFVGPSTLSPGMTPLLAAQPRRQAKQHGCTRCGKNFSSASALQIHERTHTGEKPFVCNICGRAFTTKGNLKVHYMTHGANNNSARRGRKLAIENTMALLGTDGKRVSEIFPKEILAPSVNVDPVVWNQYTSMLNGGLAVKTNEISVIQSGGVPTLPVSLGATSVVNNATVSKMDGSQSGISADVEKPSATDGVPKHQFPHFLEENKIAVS
Method: universal PBM
Molecule type: double-stranded DNA, one strand shown
Medium: in vitro
Tested at: 600 nM
Setting: 8-mer, flanks averaged, mean of replicates
Direction: higher = stronger binding
| Oligonucleotide | E-score |
| --- | --- |
| ACGCAGCC | -0.279 |
| CGGCTGAA | -0.169 |
| GGGTACTA | -0.0324 |
| GCTCTGAA | -0.0659 |
| CGGTAAGA | -0.0847 |
| CACAACGG | -0.204 |
| AGATGACG | -0.0808 |
| CACGCCCC | -0.357 |
| CCTAGTAC | -0.00965 |
| CAAGGCAA | 0.121 |
| CCACAGAA | 0.0928 |
| ACATTCCG | -0.0876 |
| CAAAGGCG | -0.135 |
| ACGAGTCA | 0.0407 |
| GGCTCCTA | -0.196 |
| ACTCCTGA | -0.0674 |
| AACAAACA | 0.21 |
| AAGCCACG | -0.188 |
| GAGCGTCC | -0.319 |
| CCAGTTTA | 0.0266 |
| ATGTCATC | -0.0181 |
| AACAAGCG | 0.0805 |
| AAGTCAAT | 0.162 |
| ACCACCTC | -0.0531 |
| CTCGGCAG | -0.205 |

Series 3
Target: Histone acetyltransferase KAT6A, winged helix 2, GST fusion (KAT6A, Homo sapiens, UniProt Q92794, residues 85-181)
Method: protein binding microarray
Molecule type: double-stranded DNA, one strand shown
Medium: in vitro
Tested at: not given
Setting: 8-mer, flanks averaged, mean of 2 arrays, mostly near background
Relative to: not given
Direction: higher = stronger binding
Target sequence (chain): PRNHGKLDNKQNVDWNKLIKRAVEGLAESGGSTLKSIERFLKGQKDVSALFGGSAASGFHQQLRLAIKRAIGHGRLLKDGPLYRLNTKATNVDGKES
| Oligonucleotide | E-score |
| --- | --- |
| ATAGGCGC | -0.0601 |
| ACCAGATC | 0.049 |
| CACGACGC | 0.0703 |
| GTAGGTGA | -0.0689 |
| AGAACAAG | 0.0458 |
| CACTCCGA | 0.0313 |
| CGCGGTTC | 0.175 |
| AGCGCCAC | 0.0749 |
| ATCAACAT | 0.0365 |
| GTGACCTA | -0.00647 |
| GCCTACGA | 0.0135 |
| ATCTGAAC | 0.0437 |
| AATTACTG | -0.134 |
| TCGCTAGA | 0.0618 |
| CCGAGACG | 0.102 |
| AAGCAGGT | 0.0941 |
| AGAATTAA | 0.0389 |
| GAAAACCC | -0.0408 |
| GGATGACA | -0.0873 |
| GTCATGTA | -0.269 |
| CAGTGGCG | 0.13 |
| GACTCAGC | -0.146 |
| ATCATCTA | -0.154 |
| CAATCACG | -0.00592 |
| AAGTGACG | 0.158 |

Series 4
Target: CCND2, cyclin fold, Cln2 fusion (human)
Method: yeast growth competition, sequencing
Medium: yeast
Setting: weak parent motif
Relative to: not given
Direction: higher = stronger binding
Starting sequence: MICAL3 docking peptide (human); LQLRRQLSFSEDS; partner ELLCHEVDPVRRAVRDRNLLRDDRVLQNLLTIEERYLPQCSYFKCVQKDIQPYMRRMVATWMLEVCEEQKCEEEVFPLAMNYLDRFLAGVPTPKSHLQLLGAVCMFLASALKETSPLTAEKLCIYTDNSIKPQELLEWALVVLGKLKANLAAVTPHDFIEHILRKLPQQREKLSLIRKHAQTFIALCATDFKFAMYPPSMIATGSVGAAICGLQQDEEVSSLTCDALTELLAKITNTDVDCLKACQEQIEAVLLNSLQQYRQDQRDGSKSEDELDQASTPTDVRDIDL
| Change | normalised enrichment score |
| --- | --- |
| LQLRRQLSFKEDS [S10K] | 0.356 |
| LQLRRQLSFSEMS [D12M] | 0.692 |
| LQLRRQLSFSEPS [D12P] | 0.327 |
| LRLRRQLSFSEDS [Q2R] | -0.372 |
| LQLRFQLSFSEDS [R5F] | -0.222 |
| LQLRRPLSFSEDS [Q6P] | 0.0256 |
| LQWRRQLSFSEDS [L3W] | -0.226 |
| LQLRRQLFFSEDS [S8F] | 0.189 |
| LQLRRMLSFSEDS [Q6M] | 0.247 |
| LQLRRQLAFSEDS [S8A] | -0.243 |
| LQLRRQLSFSERS [D12R] | 0.0928 |
| LFLRRQLSFSEDS [Q2F] | 0.2 |
| LQLYRQLSFSEDS [R4Y] | 0.282 |
| LQLRRILSFSEDS [Q6I] | 0.389 |
| LQLARQLSFSEDS [R4A] | 0.282 |
| LQLRRQLSFSEVS [D12V] | 0.256 |
| LQLRRFLSFSEDS [Q6F] | -0.726 |
| LQLRRQLSFSEAS [D12A] | 0.103 |
| LQLRRQHSFSEDS [L7H] | 0.253 |
| LQNRRQLSFSEDS [L3N] | 0.109 |
| LQLRRQLWFSEDS [S8W] | 0.0463 |
| LPLRRQLSFSEDS [Q2P] | 0.648 |
| LQLRRQLSGSEDS [F9G] | 0.278 |
| LQLRRQLSFSYDS [E11Y] | 0.16 |
| LQRRRQLSFSEDS [L3R] | 0.437 |

Series 5
Target: Interferon regulatory factor 7, full length, phosphomimetic (IRF7, Homo sapiens, UniProt Q92985, residues 1-503, S471D/S472D/S475D/S476D/S477D/S483D/S484D/S487D)
UniProt Q92985, sequence (whole entry, unmodified, looked up): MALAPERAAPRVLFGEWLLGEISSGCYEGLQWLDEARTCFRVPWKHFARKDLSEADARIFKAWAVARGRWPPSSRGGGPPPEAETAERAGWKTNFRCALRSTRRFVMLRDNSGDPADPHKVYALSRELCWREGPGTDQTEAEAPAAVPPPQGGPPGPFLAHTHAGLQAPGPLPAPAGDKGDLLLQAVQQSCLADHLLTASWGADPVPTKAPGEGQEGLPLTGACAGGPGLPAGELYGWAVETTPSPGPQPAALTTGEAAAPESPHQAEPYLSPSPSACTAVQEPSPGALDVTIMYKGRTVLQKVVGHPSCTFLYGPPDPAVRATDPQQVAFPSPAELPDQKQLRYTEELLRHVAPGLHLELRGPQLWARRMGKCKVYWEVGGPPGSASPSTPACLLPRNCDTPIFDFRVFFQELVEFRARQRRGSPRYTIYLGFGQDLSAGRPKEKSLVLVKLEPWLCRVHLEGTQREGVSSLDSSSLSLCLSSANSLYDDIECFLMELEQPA
Method: protein-binding microarray
Molecule type: double-stranded DNA, one strand shown
Medium: in vitro
Tested at: 2200 nM top
Setting: 60-bp whole probe
Added: salmon DNA 0.4 mg/ml
Relative to: random background probes
Direction: higher = stronger binding
Shared flanks, not repeated: GCCTAGCAC … GTCTTGATTCGCTTGACGCTGCTG
| Oligonucleotide | fitted relative affinity [z-score] |
| --- | --- |
| GACGACTTCAGTATCGAGACGTGCTAG | 0.205 |
| GACGATCTCAGTATCGCGACGTGCTAG | 0.31 |
| GTGTGTTTGAGTCTTCTCCTGTGCTAG | 1.22 |
| GGCGGTTTCGGTATCGGGACGTGCTAG | 7.74 |
| GGCGGTTTCCTTCTCCTGACGTGCTAG | 2.39 |
| TTAGGTTTCGGGAATGGGTTAGTGCTA | 2.2 |
| TTGCCTCACCTCACCTGTCCGTGCTAG | 1.32 |
| GACGATCTCAGAGTGGAGACGTGCTAG | -0.336 |
| GACGGACTGCTTTTCTTGACGTGCTAG | 0.462 |
| GACGATGTCAGACTGGAGACGTGCTAG | -0.17 |
| GACGGTTTCCGTCTCGGGACGTGCTAG | 2.04 |
| TTAAGTTTCGGGTTTCGGTTAGTGCTA | 12.4 |
| TCACCACTCATGCCTCTTACTGTGCTA | 1.7 |
| TATGTTTTTCATTTTGTTCAGTGCTAG | 3.69 |
| TCACATACGAGTTTCCATTTGTGCTAG | 4.28 |
| TTAGGTTTCGACTAACGGTTAGTGCTA | 2.88 |
| TCAGTATTTTTTCTGAAACTGTGCTAG | 0.524 |
| CTCTATACCCATGTAGAGAGGTGCTAG | 0.41 |
| TTAGGTTTCGACTTTCGGTCAGTGCTA | 7.78 |
| TATAGTTATTTTTATTAAAAGTGCTAG | -0.123 |
| GAATTTCCCACTTTCACTTCGTGCTAG | 8.68 |
| ATTATGTTTGCTTTGTTCTGGTGCTAG | 1.99 |
| TTAGATATCGGAACTGGATTAGTGCTA | -0.191 |
| TTAGGTTTCGGGATTCGGTTAGTGCTA | 5.81 |
| TCATTTTTCTCCTATTTAACTGTGCTA | 2.32 |

Other studies, line by line
| Substance | target | test | system | conditions | how to read | quantity | value |
| --- | --- | --- | --- | --- | --- | --- | --- |
| PhoQ, residues 284 288 289 292 302 303 AANNSF | PhoP, residues 12 14 15 18 19 SEGLL (Escherichia coli, UniProt P23836) | Sort-seq, item: YFP reporter | E. coli | PhoQ-PhoP variant library, added: 10 µM Mg2+ | relative to: high Mg2+ state, higher = stronger signaling | fold induction | 16.6 |

Excerpt of the above (series 1):
| Oligonucleotide | E-score |
| --- | --- |
| ATAATTAT | 0.289 |
| TGATGGAA | 0.259 |
| GGGTGGAC | 0.255 |
| TCCCCAAA | 0.254 |
| AGATACAC | 0.304 |
| GACCCACC | 0.323 |
| ATCGGGGC | 0.252 |
| CCGCCCCC | 0.494 |
| CGGGGTAG | 0.311 |
| ACCCACCA | 0.285 |
| CTATGCAA | 0.277 |
| CCTCCCAC | 0.385 |
